Assay results pooled from the literature.
Every numbered part comes from another study and shows a few of its results, in no order.
UniProt P51956, sequence (whole entry, looked up): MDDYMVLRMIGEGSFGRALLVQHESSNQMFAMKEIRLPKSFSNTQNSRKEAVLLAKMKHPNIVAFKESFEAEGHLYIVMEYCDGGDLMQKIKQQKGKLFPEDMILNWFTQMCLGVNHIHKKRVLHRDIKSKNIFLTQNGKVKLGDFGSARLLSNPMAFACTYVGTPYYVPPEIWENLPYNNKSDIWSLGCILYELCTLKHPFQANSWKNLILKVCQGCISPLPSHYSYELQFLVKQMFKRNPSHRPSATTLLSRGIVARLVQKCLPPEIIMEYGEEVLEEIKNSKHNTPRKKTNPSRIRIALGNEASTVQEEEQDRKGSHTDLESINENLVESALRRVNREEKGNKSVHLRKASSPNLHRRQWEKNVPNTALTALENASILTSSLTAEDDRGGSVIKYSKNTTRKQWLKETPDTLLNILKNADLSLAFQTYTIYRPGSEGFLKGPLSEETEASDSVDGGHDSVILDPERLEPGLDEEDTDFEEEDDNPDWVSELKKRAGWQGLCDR
UniProt Q13237, sequence (whole entry, looked up): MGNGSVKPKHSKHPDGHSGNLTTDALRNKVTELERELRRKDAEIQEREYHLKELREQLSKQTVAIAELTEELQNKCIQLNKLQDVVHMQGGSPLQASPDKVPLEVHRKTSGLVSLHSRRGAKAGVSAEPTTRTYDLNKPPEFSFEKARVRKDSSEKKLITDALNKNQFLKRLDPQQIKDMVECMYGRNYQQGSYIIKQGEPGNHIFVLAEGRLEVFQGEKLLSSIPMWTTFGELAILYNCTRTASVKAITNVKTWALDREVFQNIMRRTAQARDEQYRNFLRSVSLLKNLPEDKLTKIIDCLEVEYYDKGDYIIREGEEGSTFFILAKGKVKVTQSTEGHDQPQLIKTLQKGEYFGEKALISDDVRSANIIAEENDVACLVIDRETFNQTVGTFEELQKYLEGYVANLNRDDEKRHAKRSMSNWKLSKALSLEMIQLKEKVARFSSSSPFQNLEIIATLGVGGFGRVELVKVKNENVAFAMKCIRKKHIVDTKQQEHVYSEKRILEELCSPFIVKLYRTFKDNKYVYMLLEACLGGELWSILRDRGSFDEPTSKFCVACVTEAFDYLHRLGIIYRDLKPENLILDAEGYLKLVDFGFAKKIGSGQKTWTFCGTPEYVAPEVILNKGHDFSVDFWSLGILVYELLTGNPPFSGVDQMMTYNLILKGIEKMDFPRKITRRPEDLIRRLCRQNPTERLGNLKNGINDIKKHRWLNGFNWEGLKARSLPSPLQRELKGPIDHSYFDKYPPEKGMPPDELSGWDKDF
UniProt O14920, sequence (whole entry, looked up): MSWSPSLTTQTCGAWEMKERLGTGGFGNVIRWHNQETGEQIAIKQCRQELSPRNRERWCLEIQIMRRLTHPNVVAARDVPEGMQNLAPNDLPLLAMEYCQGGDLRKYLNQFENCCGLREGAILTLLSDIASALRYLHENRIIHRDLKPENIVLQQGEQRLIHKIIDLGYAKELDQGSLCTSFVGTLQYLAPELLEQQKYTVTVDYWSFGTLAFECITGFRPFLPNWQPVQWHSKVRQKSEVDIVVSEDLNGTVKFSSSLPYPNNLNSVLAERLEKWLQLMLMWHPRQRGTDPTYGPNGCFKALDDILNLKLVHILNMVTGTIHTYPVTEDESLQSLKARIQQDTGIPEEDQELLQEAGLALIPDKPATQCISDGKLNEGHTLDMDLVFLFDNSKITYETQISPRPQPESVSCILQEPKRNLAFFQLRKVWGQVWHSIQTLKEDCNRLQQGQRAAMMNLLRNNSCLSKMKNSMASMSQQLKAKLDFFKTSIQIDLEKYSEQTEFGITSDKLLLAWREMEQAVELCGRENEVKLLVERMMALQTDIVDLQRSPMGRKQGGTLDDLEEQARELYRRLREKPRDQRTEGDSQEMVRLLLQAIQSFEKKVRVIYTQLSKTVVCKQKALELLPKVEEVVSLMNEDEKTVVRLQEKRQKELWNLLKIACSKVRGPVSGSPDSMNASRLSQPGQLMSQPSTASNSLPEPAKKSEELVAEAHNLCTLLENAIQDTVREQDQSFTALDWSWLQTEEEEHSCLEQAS
UniProt Q15759, sequence (whole entry, looked up): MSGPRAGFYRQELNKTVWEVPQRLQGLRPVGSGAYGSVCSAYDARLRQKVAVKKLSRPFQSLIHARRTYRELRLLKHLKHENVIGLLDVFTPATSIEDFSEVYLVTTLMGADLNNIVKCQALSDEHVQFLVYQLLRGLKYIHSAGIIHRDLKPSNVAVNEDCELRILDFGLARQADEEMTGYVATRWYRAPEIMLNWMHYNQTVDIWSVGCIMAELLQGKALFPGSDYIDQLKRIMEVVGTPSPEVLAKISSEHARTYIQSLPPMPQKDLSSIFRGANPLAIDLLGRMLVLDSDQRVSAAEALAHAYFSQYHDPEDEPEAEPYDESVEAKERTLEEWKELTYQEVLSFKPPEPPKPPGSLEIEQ
UniProt P32298, sequence (whole entry, looked up): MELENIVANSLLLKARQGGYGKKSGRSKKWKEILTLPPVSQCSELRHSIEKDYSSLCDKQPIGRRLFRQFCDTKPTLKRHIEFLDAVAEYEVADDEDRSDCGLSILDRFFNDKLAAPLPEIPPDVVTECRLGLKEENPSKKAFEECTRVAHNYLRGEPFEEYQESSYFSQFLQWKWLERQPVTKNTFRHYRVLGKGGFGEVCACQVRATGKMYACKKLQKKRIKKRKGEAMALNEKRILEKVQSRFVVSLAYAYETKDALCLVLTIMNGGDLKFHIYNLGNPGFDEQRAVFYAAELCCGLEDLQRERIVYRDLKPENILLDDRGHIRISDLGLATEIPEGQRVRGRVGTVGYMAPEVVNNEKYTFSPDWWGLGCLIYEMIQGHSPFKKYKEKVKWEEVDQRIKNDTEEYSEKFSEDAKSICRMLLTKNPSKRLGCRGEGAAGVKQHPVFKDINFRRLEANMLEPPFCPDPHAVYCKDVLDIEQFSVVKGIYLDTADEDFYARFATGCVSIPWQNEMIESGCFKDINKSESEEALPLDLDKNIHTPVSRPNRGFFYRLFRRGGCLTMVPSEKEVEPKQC
UniProt Q7KZI7, sequence (whole entry, looked up): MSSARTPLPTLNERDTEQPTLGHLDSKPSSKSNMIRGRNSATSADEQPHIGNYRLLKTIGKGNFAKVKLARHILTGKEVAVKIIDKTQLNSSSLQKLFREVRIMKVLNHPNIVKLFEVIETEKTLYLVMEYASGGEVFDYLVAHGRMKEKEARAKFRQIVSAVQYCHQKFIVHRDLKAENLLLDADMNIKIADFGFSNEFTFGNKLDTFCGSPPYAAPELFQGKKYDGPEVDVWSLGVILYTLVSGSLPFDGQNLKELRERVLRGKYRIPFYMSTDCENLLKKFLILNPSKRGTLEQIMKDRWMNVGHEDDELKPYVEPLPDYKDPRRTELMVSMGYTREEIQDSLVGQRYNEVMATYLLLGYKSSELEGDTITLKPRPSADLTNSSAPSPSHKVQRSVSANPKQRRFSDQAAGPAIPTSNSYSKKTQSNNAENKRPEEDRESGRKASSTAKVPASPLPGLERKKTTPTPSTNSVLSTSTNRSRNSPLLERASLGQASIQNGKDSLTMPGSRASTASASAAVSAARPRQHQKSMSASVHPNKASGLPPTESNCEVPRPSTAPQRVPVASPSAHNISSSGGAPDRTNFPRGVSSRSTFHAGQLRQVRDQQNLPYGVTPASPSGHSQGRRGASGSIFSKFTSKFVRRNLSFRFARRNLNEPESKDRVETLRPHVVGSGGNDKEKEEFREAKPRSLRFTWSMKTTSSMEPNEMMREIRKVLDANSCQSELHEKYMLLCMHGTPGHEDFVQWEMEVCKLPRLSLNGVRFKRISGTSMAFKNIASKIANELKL
UniProt Q15569, sequence (whole entry, looked up): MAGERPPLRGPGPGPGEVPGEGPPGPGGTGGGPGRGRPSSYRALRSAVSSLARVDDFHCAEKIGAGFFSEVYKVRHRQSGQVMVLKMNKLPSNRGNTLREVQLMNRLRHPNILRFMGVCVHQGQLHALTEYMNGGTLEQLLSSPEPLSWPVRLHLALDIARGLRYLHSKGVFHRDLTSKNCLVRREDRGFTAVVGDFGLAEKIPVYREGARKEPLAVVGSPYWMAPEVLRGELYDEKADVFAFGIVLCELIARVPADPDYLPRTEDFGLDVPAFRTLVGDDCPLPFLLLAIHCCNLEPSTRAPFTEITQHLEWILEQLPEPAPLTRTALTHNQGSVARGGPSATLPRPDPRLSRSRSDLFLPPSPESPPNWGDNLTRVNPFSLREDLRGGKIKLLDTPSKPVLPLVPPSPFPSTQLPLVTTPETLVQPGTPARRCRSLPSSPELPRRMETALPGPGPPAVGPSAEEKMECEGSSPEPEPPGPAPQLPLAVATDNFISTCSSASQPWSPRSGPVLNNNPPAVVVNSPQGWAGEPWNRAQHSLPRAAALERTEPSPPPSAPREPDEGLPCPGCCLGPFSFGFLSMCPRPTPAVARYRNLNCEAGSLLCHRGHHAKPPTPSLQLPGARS

Study 1
Target: Calcium/calmodulin-dependent protein kinase type II subunit alpha (CAMK2A, Homo sapiens, UniProt Q9UQM7)
UniProt Q9UQM7, sequence (whole entry, looked up): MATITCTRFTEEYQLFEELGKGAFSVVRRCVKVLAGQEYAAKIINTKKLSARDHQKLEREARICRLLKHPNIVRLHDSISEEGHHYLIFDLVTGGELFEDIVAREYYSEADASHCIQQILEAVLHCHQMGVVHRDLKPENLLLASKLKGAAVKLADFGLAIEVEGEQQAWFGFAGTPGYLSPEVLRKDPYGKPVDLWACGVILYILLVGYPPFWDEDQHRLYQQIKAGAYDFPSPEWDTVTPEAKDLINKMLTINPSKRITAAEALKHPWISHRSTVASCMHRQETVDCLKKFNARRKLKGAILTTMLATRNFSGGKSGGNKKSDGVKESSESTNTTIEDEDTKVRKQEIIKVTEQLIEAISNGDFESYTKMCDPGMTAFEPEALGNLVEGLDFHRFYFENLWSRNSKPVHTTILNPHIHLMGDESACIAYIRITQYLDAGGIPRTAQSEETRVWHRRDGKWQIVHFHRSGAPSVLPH
Observed: enzyme activity
Mode: inhibitor
Tested at: 10 µM
Measurement: inhibition
CN(C)CCOC(c1ccc(Cl)cc1)c1ccccn1 (centres unmarked): -10%
COc1cc(C[C@H](C)[C@H](C)Cc2ccc3c(c2)OCO3)ccc1O: -14%
CC1=CC(=O)CC(C)(C)C1: -23%
CCN1CCC[C@H]1CNC(=O)c1cc(S(N)(=O)=O)ccc1OC: -2%
COC(=O)C1=CO[C@@H](O[C@@H]2O[C@H](CO)[C@@H](O)[C@H](O)[C@H]2O)[C@@H]2[C@H](C)O[C@@H](O)C[C@H]12: -15%
Oc1c(Br)cc(Br)c2cccnc12: -9%
O=c1oc2cc(O)ccc2c2ccc(O)cc12: -115%
C=CCC(C)C(=O)O (centres unmarked): 7%
O=C1[C@H]2CCCC[C@H]2C(=O)N1CCCCN1CCN(c2nsc3ccccc23)CC1: -9%

Study 2
SMILES: CC(=O)Nc1c(C(C)=O)c(=O)n(C)c2nc(-c3ccc(Cl)cc3Cl)c(-c3ccc(Cl)cc3)cc12
Observed: cell-free assay
Method: competition with immobilised ligand
Tested at: 1 µM
Measurement: remaining binding
PDGFRA (Homo sapiens, UniProt P16234): 100%
MYLK3 (Homo sapiens, UniProt Q32MK0): 100%
TESK1 (Homo sapiens, UniProt Q15569): 100%
ULK1 (Homo sapiens, UniProt O75385): 66%
MAPK8 (Homo sapiens, UniProt P45983): 71%
IKBKB (Homo sapiens, UniProt O14920): 100%
FGFR3 (Homo sapiens, UniProt P22607): 100%
PIK3CA (Homo sapiens, UniProt P42336, I800L): 58%
ULK2 (Homo sapiens, UniProt Q8IYT8): 100%
MAP3K12 (Homo sapiens, UniProt Q12852): 100%
LRRK2 (Homo sapiens, UniProt Q5S007): 100%
CDKL3 (Homo sapiens, UniProt Q8IVW4): 100%

Study 3
Compound: O=C1Cc2c([nH]c3ccc(Br)cc23)-c2ccccc2N1
Observed: enzyme activity
Mode: inhibitor
Tested at: 0.5 µM
Baseline: control
Measurement: remaining activity
MAPK11 (Homo sapiens, UniProt Q15759): 104%
PRKG2 (Homo sapiens, UniProt Q13237): 101%
GRK4 (Homo sapiens, UniProt P32298): 97.9%
CLK3 (Homo sapiens, UniProt P49761): 99.3%
PAK3 (Homo sapiens, UniProt O75914): 96.6%
TLK2 (Homo sapiens, UniProt Q86UE8): 99.4%
ROCK1 (Homo sapiens, UniProt Q13464): 96.1%
AKT2 (Homo sapiens, UniProt P31751): 104%
MARK4 (Homo sapiens, UniProt Q96L34): 60.2%
PNCK (Homo sapiens, UniProt Q6P2M8): 99.6%
MAP2K1 (Homo sapiens, UniProt Q02750): 84.3%
MARK2 (Homo sapiens, UniProt Q7KZI7): 74.3%
NEK3 (Homo sapiens, UniProt P51956): 96.2%

Study 4
Target: Bromodomain-containing protein 4, BD1 (BRD4, Homo sapiens, UniProt O60885)
Observed: acetyl-histone H4 peptide binding
Method: AlphaScreen displacement
Tested at: 50 µM
Measurement: inhibition
CCOC(=O)C1=C(C)NN=C(Nc2cccc(C)c2C)S1: 47%
CCCCCCOC(=O)[C@]1(O)C[C@@H]2O[C@@]1(C)n1c3ccccc3c3c4c(c5c6ccccc6n2c5c31)C(=O)NC4: 27.9%
CCOc1cc(C=NNc2ccc3nnc(-c4ccc(Br)cc4)n3n2)ccc1O: 61.6%
NC(=O)c1ccc(-c2nc(-c3ccc4c(c3)OCCO4)c(-c3ccccn3)[nH]2)cc1: 52.4%
Oc1cccc(-c2nc(N3CCOCC3)c3sccc3n2)c1: 60.5%
COc1cc(O)c2c(c1)/C=C/C[C@H](O)[C@H](O)C(=O)/C=C\C[C@H](C)OC2=O: 12.3%
COc1cccc(C(=O)c2sc(Nc3ccc(F)c(Cl)c3)nc2N)c1: 2.8%
CCC(Sc1ccc2nnc(-c3ccc(OC)c(OC)c3)n2n1)C(=O)OC (centres unmarked): 6.4%
CCOC(=O)C(CC)Sc1ccc2nnc(-c3cccc(F)c3)n2n1 (centres unmarked): 13.9%
COc1ccc(N(C)C(=S)Nc2ccc3nc[nH]c(=O)c3c2)cc1: 14.1%
O=C1NC(=O)C(=Cc2ccc(-c3ccccc3[N+](=O)[O-])o2)S1: 43.3%
O=S(=O)(NCCNCC=Cc1ccc(Br)cc1)c1cccc2cnccc12: 12.9%
Clc1cccc(Nc2cncc(-c3cccnc3)c2)c1: 6.85%

Some of these lines once more (study 3):
PNCK (Homo sapiens, UniProt Q6P2M8): 99.6%
MAP2K1 (Homo sapiens, UniProt Q02750): 84.3%
MARK2 (Homo sapiens, UniProt Q7KZI7): 74.3%
NEK3 (Homo sapiens, UniProt P51956): 96.2%
